Published values collected from several papers.
Lines come from different studies, so protocols differ. ± gives the spread as reported.
GABA-A receptor; alpha-1/beta-2/gamma-2: GABA-A receptor; alpha-1/beta-2/gamma-2 (Rattus norvegicus, UniProt P18508+P62813+P63138)
Chain of UniProt P63138 (whole entry, looked up): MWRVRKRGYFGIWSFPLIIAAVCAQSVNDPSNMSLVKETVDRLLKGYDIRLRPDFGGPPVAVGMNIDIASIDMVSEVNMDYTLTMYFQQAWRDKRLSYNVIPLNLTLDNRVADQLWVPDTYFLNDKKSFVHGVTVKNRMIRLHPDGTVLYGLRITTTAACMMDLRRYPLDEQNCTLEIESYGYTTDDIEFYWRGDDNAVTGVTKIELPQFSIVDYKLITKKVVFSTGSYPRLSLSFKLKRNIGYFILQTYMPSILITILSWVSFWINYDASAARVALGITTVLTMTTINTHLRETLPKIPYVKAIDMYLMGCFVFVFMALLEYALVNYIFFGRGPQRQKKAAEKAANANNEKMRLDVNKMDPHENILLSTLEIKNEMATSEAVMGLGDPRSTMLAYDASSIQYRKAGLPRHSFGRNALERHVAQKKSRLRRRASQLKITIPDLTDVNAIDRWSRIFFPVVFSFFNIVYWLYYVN
Chain of UniProt P18508 (whole entry, looked up): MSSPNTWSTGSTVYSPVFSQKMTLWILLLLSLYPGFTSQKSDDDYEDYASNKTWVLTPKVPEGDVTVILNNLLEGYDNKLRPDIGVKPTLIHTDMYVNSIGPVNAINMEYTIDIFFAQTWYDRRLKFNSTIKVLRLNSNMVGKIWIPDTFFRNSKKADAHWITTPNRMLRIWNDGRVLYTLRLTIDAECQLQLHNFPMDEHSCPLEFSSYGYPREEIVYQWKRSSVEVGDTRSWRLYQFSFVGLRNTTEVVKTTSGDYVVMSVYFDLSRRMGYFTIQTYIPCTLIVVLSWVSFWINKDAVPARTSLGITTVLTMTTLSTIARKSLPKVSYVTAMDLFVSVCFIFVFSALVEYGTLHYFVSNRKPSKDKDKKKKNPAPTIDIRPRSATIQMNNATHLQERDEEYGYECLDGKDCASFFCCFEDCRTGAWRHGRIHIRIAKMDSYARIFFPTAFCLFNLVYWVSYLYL
Chain of UniProt P62813 (whole entry, looked up): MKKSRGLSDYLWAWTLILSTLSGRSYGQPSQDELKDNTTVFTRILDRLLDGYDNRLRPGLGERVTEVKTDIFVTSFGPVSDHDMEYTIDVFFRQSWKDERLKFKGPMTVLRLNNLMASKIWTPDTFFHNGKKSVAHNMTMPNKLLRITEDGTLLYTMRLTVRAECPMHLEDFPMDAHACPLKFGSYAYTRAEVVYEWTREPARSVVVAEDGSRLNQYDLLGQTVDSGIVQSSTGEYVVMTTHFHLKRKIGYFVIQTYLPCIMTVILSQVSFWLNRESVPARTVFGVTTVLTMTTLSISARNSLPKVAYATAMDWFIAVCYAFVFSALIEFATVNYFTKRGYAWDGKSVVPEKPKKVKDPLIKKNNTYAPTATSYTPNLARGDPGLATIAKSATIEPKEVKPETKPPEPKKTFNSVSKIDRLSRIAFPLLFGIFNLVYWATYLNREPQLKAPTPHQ
BCHE: Cholinesterase (BCHE, Homo sapiens, UniProt P06276)
Chain of UniProt P06276 (whole entry, looked up): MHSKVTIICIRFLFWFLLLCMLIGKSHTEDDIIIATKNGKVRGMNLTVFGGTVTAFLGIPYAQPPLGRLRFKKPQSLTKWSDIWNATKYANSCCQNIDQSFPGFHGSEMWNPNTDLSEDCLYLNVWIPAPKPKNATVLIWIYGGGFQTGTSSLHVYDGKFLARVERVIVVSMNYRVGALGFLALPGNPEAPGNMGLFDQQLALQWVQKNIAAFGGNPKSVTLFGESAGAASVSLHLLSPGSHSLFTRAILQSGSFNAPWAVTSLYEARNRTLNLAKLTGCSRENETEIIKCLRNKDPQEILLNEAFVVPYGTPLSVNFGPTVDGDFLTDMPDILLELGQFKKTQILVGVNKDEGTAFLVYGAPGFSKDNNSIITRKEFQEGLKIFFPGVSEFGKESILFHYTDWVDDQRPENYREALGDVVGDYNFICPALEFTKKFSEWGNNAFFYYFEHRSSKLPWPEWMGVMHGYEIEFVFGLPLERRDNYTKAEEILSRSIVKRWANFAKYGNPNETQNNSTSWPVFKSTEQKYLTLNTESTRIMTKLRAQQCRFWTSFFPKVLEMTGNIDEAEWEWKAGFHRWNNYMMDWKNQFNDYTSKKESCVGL
Voltage-gated sodium channel: Voltage-gated sodium channel (Musca domestica, UniProt Q25439)
gag-pol integrase with LEDGF/p75: Gag-Pol polyprotein, integrase with LEDGF/p75 (gag-pol, Human immunodeficiency virus 1, UniProt P12497)
CatSper channel complex: CatSper channel complex (Homo sapiens, UniProt Q7RTX7+Q86XQ3+Q8NEC5+Q96P56)
Chain of UniProt Q96P56 (whole entry, looked up): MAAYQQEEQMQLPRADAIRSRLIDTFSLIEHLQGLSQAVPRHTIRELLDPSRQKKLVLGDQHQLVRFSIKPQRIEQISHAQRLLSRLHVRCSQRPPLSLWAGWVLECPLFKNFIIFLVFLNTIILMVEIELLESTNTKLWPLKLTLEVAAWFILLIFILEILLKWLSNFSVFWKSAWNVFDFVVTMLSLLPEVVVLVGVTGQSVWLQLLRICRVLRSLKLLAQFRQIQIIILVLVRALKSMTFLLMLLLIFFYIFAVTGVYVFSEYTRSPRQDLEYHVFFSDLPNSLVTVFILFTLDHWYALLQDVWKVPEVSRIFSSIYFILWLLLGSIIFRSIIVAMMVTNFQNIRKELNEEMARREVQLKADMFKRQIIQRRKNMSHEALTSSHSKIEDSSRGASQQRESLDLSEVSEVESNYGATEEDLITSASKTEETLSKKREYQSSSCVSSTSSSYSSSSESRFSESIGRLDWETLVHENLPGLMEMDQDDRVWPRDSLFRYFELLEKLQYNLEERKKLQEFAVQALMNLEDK
Chain of UniProt Q86XQ3 (whole entry, looked up): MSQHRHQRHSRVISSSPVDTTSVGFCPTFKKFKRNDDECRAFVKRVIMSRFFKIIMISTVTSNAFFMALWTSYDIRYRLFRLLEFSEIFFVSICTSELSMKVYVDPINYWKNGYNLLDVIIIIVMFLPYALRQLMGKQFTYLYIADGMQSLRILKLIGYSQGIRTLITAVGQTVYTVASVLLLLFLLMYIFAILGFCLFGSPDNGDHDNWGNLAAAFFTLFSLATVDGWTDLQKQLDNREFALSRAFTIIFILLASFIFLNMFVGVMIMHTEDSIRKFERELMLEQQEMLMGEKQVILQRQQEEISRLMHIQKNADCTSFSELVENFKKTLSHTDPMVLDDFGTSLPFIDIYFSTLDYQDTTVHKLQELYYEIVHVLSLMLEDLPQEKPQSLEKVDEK
Chain of UniProt Q7RTX7 (whole entry, looked up): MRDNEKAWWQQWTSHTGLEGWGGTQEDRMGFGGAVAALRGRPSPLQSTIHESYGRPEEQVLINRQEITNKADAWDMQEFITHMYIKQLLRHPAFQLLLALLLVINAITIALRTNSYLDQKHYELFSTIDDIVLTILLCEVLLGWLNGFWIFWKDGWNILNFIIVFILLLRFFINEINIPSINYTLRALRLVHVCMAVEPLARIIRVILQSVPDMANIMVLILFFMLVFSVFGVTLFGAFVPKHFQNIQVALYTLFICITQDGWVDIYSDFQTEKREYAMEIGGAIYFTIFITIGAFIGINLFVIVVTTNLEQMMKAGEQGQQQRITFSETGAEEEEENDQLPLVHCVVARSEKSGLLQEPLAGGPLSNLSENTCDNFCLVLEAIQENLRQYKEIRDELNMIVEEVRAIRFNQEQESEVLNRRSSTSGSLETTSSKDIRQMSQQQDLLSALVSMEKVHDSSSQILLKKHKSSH
Chain of UniProt Q8NEC5 (whole entry, looked up): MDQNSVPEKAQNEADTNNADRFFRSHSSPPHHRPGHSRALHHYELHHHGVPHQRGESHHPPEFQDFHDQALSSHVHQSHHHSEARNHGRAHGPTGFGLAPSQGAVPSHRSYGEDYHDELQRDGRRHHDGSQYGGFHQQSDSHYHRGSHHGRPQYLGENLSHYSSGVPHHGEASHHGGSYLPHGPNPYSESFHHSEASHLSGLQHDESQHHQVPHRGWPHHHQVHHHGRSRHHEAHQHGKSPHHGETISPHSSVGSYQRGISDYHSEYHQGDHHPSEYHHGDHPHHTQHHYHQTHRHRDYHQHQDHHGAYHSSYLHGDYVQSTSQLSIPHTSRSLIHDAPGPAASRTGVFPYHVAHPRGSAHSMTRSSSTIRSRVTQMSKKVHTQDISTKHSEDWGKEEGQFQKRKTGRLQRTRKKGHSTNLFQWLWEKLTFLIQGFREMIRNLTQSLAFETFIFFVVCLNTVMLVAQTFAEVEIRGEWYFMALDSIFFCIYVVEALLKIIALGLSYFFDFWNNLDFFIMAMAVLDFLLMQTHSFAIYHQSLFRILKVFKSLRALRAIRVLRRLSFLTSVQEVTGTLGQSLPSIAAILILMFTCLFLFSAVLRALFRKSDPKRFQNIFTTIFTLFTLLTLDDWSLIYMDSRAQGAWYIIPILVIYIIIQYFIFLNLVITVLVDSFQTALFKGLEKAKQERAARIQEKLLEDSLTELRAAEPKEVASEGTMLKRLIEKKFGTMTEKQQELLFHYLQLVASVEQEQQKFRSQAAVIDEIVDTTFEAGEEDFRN
Chain of UniProt Q91X85 (whole entry, looked up): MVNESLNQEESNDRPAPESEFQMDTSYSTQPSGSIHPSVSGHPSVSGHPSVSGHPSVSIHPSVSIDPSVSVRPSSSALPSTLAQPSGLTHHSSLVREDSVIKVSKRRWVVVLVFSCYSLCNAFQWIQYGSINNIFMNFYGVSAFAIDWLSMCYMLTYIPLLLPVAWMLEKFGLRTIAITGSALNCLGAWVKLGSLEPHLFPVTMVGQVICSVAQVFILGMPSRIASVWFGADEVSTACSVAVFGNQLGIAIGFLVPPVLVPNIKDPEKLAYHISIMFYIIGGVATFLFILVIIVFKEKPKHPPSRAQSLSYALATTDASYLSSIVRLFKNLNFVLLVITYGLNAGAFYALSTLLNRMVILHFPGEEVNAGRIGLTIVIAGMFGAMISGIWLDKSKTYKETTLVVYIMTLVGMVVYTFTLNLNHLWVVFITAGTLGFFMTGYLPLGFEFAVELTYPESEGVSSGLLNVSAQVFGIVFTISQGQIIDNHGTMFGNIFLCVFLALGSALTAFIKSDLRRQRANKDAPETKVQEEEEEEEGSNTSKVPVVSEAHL

`NCc1cc(=O)[nH]o1` has an EC50 of 240 nM (GABA-A receptor; alpha-1/beta-2/gamma-2; membrane potential, agonist, QP-DHM fluorescence; HEK293 expressing GABAA).
`N#C/C=C/c1ccc2c(S(=O)(=O)n3nc(Nc4ccc(C#N)c(Cl)c4)nc3N)cccc2c1` gave an EC50 of 420 ± 570 nM (Gag-Pol polyprotein, reverse transcriptase (gag-pol, Human immunodeficiency virus type 1 group M subtype B, UniProt P04585); enzyme activity, inhibitor; 30 min, room temperature).
With `C[C@]12CC[C@H]3[C@@H]([C@H](O)CC4=CC(=O)CC[C@@]43C)[C@@H]1CC[C@@H]2O` the EC50 was 86000 nM (Androgen receptor (AR, Homo sapiens, UniProt P10275); cell-based).
`CCOC(=O)C(=O)c1csc(NC=O)n1` has an IC50 of 15200 ± 8420 nM (BCHE; inhibitor; with Triton).
For `COc1cc(Nc2ncc(F)c(Nc3ccc4c(n3)NC(=O)C(C)(C)O4)n2)cc(OC)c1OC`, the IC50 was greater than 10000 nM (PDE2A (Homo sapiens, UniProt O00408)).
For `Clc1cc2c(cc1Cl)Oc1cc(Cl)c(Cl)cc1O2`, the EC50 was 0.13 ± 0.03 nM (Ahr (Mus musculus, UniProt P30561); agonist).
The EC50 of `CC[C@H](C)[C@H]1O[C@]2(C=C[C@@H]1C)C[C@@H]1C[C@@H](C/C=C(\C)[C@@H](O[C@H]3C[C@H](OC)[C@@H](O[C@H]4C[C@H](OC)[C@@H](O)[C@H](C)O4)[C@H](C)O3)[C@@H](C)/C=C/C=C3\CO[C@@H]4[C@H](O)C(C)=C[C@@H](C(=O)O1)[C@]34O)O2` is reported as 13000 nM (GABA-A receptor; alpha-1/beta-2/gamma-2; chloride current, agonist, whole-cell patch clamp; HEK293 expressing GABAA; 30 s).
With `CCCCC/C=C\C/C=C\C/C=C\C/C=C\CCCC(=O)Nc1ccc(O)cc1` the EC50 was 32000 nM (20S proteasome human; proteasome activity, activator).
The EC50 of `CC1(C)[C@H](C=C(Cl)Cl)[C@H]1C(=O)OCc1c(F)c(F)cc(F)c1F` is reported as 1770 nM (Voltage-gated sodium channel; membrane potential, activator, FLIPR; HEK293 expressing house fly VGSC).
With `c1ccc2sc(C3(N4CCCCC4)CCCCC3)cc2c1` the IC50 was 2360 ± 400 nM (BCHE; inhibitor).
`C[N+](C)(C)CCO` gave an EC50 of 33 nM (Flvcr2 (Mus musculus, UniProt Q91X85); choline uptake, isotopic dilution; proteoliposomes).
For `COc1ccc(OC)c(/C=N/NC(=O)c2n[nH]c3c2CCC3)c1`, the IC50 was greater than 50000 nM (gag-pol integrase with LEDGF/p75; LEDGF/p75-integrase interaction, inhibitor, AlphaScreen).
The EC50 of `CC1(C)C(C=C(Cl)Cl)C1C(=O)OCc1cccc(Oc2ccccc2)c1` (stereo not shown) is reported as 724 nM (Voltage-gated sodium channel; membrane potential, activator, FLIPR; HEK293).
The EC50 of `c1cc(N2CCNCC2)c2cc[nH]c2c1` is reported as greater than 20000 nM (CHRM4 (Homo sapiens, UniProt P08173); ERK1/2 phosphorylation, agonist; CHO cells).
With `C=C(C)[C@@H]1CCC(C)=C[C@H]1c1c(O)cc(CCCCC)cc1O` the EC50 was 1170 ± 1170 nM (CatSper channel complex; intracellular Ca2+ increase, agonist, Fluo-4 fluorimetry; human sperm).
With `COc1cc(C(=O)N2CC[C@@H](O)[C@@H](N)C2)cc2nc(-c3cc4ccccc4n3CC3CC3)n(C)c12` the EC50 was greater than 100000 nM (DRD2 (Homo sapiens, UniProt P14416); agonist, GTPγS binding).
With `C[C@@H]1NC(=O)N[C@@H]1CCCCCC(=O)N1CCN(C(=O)c2ccc(/C=C/c3n[nH]c4ccc(-c5ccc(S(=O)(=O)F)cc5)cc34)cc2)CC1` the EC50 was 2900 nM (ABL1 (Homo sapiens, UniProt P00519); covalent labeling, streptavidin Western blot; recombinant protein; 1 h).
The EC50 of `C=C(C)[C@@H]1CCC(C(=O)O)=C[C@H]1c1c(O)cc(CCCCC)cc1O` is reported as 1820 ± 1340 nM (CatSper channel complex; intracellular Ca2+ increase, agonist, Fluo-4 fluorimetry; human sperm).
`Oc1ccc(Br)cc1/C=N/Nc1cccc2cccnc12` gave an IC50 of greater than 50000 nM (gag-pol integrase with LEDGF/p75; LEDGF/p75-integrase interaction, inhibitor, AlphaScreen).

Some of these lines once more:
`C[N+](C)(C)CCO` gave an EC50 of 33 nM (Flvcr2 (Mus musculus, UniProt Q91X85); choline uptake, isotopic dilution; proteoliposomes).
For `COc1cc(Nc2ncc(F)c(Nc3ccc4c(n3)NC(=O)C(C)(C)O4)n2)cc(OC)c1OC`, the IC50 was greater than 10000 nM (PDE2A (Homo sapiens, UniProt O00408)).
With `C[C@]12CC[C@H]3[C@@H]([C@H](O)CC4=CC(=O)CC[C@@]43C)[C@@H]1CC[C@@H]2O` the EC50 was 86000 nM (Androgen receptor (AR, Homo sapiens, UniProt P10275); cell-based).
